Measurements gathered from unrelated publications.
Parts stem from different laboratories: compare values within a part only.

Series 1 — technique: aptamer microarray, sandwich; molecule type: DNA with 2'F-ANA; sample: in vitro; tested at: 200 nM; added: Cy3 exosite-II aptamer, 400 nM; direction: higher = stronger binding; sequence: GGTTGGTGTGGTTGG
Target: Prothrombin, mature alpha-thrombin (F2, Homo sapiens, UniProt P00734)
Notes: whole 15-mer aptamer, many near background
| Modification | mean fluorescence intensity |
| --- | --- |
| 2'F-ANA at 4 5 8 9 13 | 72 a.u. |
| 2'F-ANA at 2 6 8 9 10 11 13 | 93.5 a.u. |
| 2'F-ANA at 3 8 9 11 14 15 | 598 a.u. |
| 2'F-ANA at 1 2 3 4 5 6 7 8 11 14 15 | 48.5 a.u. |
| 2'F-ANA at 1 5 6 7 8 14 15 | 49.3 a.u. |
| 2'F-ANA at 1 2 3 4 5 6 8 10 12 13 14 | 49.3 a.u. |
| 2'F-ANA at 2 5 7 8 9 10 11 12 14 15 | 59.6 a.u. |
| 2'F-ANA at 2 3 4 5 7 9 15 | 87.8 a.u. |
| 2'F-ANA at 1 2 3 4 8 9 10 14 15 | 199 a.u. |
| 2'F-ANA at 1 2 3 4 9 10 13 | 55.8 a.u. |
| 2'F-ANA at 8 9 | 582 a.u. |
| 2'F-ANA at 1 2 4 5 9 10 13 | 44.4 a.u. |
| 2'F-ANA at 2 3 4 10 11 13 | 225 a.u. |
| 2'F-ANA at 1 2 3 6 10 13 15 | 58.2 a.u. |
| 2'F-ANA at 4 6 7 9 10 12 13 | 79.9 a.u. |
| 2'F-ANA at 1 4 8 10 11 12 13 15 | 74.9 a.u. |
| 2'F-ANA at 1 2 3 4 5 6 8 9 13 15 | 49.8 a.u. |
| 2'F-ANA at 1 2 4 6 10 11 | 88.4 a.u. |
| 2'F-ANA at 2 3 5 6 9 12 13 | 144 a.u. |

Series 2 — technique: RNA Bind-n-Seq; molecule type: RNA; sample: in vitro; tested at: 365 nM; baseline: no-protein control; direction: higher = stronger binding
Target: RNA binding protein fox-1 homolog 2, RRM domain, GST-SBP tag (RBFOX2, Homo sapiens, UniProt O43251-10, residues 100-194)
Notes: natural RNA segment, single round, ends assumed
Constant ends, left off below: GGGAGUUCUACAGUCCGACGAUC … UGGAAUUCUCGGGUGCCAA
Construct (chain): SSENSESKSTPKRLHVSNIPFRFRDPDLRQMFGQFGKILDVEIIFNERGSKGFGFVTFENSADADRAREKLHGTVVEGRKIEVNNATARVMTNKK
| Sequence | RBNS enrichment (R) |
| --- | --- |
| CCCUGUCUUCCUUUCUGGGCAAGCUCCCAUUUUAACUUUUCCCUGUUAAAAAUUGUACUGAUGUUUUAAACUCGUAACUAUACCACCCUUCUCACUGGUGUAUUUUGAAA | 1.59 |
| GGUGUCCUGACGGGAGCCAGGUCGGCCUGAGAGCUGUGCCGCUCCUCUGUCUUGUCAGUGGAGGUGCCUGGGUGGGGAGCAGGUCUCAGGCCUCUUGUCCUCUCCCCAGU | 0.48 |
| UUCAGAAGAUUAGAAUUGGGUAGAUAUACUGUUGGAUAUAGCCAUGGUAAAUUUAACUGAGGAAUUAAAUCCUUGUUAAUUUUGGUGUAAAGAUUUGUAUCCUGGCCUGU | 0.343 |
| GUGUGGUGGUCGCUGGGACCCGUGCCGUGACCCCUAUUUAGCUGUGUUUUGGACUCCGUGUCUUCAGUGGUUUGUUAGUUACCAUUACGUAAACCUUGUCUGAGUAGUGU | 0.646 |
| ACAGGGGGGUCGGAAGCCUGUCCUCACCGUCUCGGGGGUUGUGGCCCCCGCCCCCUCCCUAUAUGCACCCCUGGAACCAGCAAGUCCCAGACAAGGAGAGCGGAGGAGGA | 0.383 |
| CCUACUGCCUCUCCAGCACUUCUCUCUUCAAGCGGCGACCCCCUACCCUCCCAGCGAGUUGCGCUGGGAGACGCUGGCGCCAGGGCCUGCCGGCGCGGGGAGGAAAGCAA | 0.446 |
| UGAGCAGCAUUCCUGGCCUCCAUCCACAAGAUACCUGUAGCAGUGUCCUGCCAACGGUAACAAUCAAGUAUGUCAUCAGACAUUGCCCAAUGUCCCCAGGGGGCAACACC | 0.205 |
| UGUUUUGUUUUUUUCCCUGCACCACAAGCUGUGUUUAUCACUUUACAGUUGCAUGUUCAACUUGUCAUAGCUGGAAUUACUGUAUAAAAAGAACUGAUUGUGACUUGUAG | 14.2 |

Series 3 — technique: universal PBM; molecule type: double-stranded DNA, one strand shown; sample: in vitro; tested at: 600 nM; direction: higher = stronger binding
Target: Sal-like protein 4, full length isoform A (SALL4, Homo sapiens, UniProt Q9UJQ4, residues 1-1053)
UniProt Q9UJQ4, sequence (whole entry, looked up): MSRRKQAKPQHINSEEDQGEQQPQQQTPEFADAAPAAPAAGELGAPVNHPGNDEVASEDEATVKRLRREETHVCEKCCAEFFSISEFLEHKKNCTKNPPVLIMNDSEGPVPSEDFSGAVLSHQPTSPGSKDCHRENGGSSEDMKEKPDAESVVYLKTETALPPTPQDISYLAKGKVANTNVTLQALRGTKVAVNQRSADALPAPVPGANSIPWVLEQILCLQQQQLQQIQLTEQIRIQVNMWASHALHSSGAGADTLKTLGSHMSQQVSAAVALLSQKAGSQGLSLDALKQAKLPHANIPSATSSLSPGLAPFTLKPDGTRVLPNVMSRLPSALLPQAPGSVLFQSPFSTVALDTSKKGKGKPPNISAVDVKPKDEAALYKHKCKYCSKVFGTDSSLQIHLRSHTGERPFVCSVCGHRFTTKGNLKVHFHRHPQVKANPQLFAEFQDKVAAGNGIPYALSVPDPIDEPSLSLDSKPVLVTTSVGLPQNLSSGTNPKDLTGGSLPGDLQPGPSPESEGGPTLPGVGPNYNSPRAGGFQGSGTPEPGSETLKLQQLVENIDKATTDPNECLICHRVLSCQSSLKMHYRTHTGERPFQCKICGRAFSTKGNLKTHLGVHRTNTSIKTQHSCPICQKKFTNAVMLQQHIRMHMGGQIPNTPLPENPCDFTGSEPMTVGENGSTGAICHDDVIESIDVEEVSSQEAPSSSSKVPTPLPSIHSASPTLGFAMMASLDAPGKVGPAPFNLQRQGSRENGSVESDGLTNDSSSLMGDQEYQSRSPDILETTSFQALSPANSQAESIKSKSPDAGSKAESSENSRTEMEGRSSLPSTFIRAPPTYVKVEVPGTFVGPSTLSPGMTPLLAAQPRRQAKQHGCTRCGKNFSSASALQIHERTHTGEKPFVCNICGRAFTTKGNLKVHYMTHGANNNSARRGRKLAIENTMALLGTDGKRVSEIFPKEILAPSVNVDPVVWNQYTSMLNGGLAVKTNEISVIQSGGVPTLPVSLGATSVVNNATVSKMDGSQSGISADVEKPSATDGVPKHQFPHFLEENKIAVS
Notes: 8-mer, flanks averaged, mean of replicates
| Sequence | E-score |
| --- | --- |
| GCTAGTCC | -0.163 |
| CGCGTCTA | 0.00286 |
| CCGAAAGG | 0.0386 |
| CCGTCACA | -0.159 |
| CCGGGAAA | -0.196 |
| ACCAGTCT | -0.215 |
| CCATGGCC | -0.379 |
| ACGCGGCG | -0.294 |
| CCGCCTTC | -0.233 |
| GGATTTAA | 0.143 |
| CGGCAGAC | -0.379 |
| ATTAACGG | 0.123 |
| GATACGAC | 0.0435 |
| GCCCAAGA | -0.246 |
| ACAGGCTC | -0.172 |
| AAATGCTA | 0.208 |

Series 4 — technique: RNA Bind-n-Seq; molecule type: RNA; sample: in vitro; tested at: not given; baseline: input RNA pool; direction: higher = stronger binding
Target: RING finger protein unkempt homolog, zinc fingers 1-6, GST-SBP tag (UNK, Homo sapiens, UniProt Q9C0B0, residues 30-357)
Notes: RNA with constant flanks, human-mouse chimeric sites, ends assumed
Constant ends, left off below: GGGAGUUCUACAGUCCGACGAUC … CAACAGAGGAUUGAGCAUCA
Residues (chain): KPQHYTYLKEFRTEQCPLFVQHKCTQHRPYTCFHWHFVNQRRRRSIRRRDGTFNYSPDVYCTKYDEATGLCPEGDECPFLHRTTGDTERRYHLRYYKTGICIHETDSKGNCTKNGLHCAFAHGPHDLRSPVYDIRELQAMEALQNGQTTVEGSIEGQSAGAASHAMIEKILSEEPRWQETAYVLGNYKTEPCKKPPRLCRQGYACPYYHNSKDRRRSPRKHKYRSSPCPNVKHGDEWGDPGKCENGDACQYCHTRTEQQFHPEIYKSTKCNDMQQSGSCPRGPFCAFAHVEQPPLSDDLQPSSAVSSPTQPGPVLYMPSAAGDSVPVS
| Sequence | bound/input enrichment [ratio] |
| --- | --- |
| GCACUUCUCAAAUACUGGCCAAAGACUCACAGUCCAAAAGAAGUAAUGUUCUUAAAUGAAUUAGAAGAGAUUUUAGAUGUAAUUGAACCAUCAGAGUUUGUGAAGAUCAUGGAGCCUCUU | 0.54 |
| UCUUUAAAAAAAAAAUUACCUUUUCUGACAGUGCUUUCCCUCCCAUAGAUCCACGUUCAAGCUCAAAGAGCAAAGGCUUUGCACGGAUCUGAUGAUGCUGAUGAAGAUUUUUGAGACAGA | 0.513 |
| GUUGCCAGCUUCCGGUUGGCCUCCAUCCGGUUCUCUCCUGAGCUACGUGUCUCUACGCUCUCAAUCCCGGUUGGGUAAAACAUGGAUCAGGUAAUGCAGUUUGUGGAGCCCAGCCGGCAG | 0.136 |
| CGCUUGGAUGAGGCGGGUGUCACAGAUGAAGUGCUAGAUUCUGCCAUGCAAGCCUUCCUUCUGGAGGUCAUUGUUAAACAUGGGGAGCCAGCCCCUUAUUUAUGUAACAAAGAUCCGUUU | 0.133 |
| UAAAUCCUGUGCCAGCACUUCGCUCAUUAUAUUUUAAAUUCUGGACCAAUAGUGUUUGUUUCCUGAUUAUUGUAUCCAAUACUUUGCCUAGUAUGUAACUCACUCUUACUGAUAAUAAAA | 2.62 |
| AAUUUCCUGUCAUACUUUUUAGACAUUGCCAUAGGUAUUACAGAGCACCUGGCCACAUUCUAGGUUUGUGUUAUUUCUCAGCUAUGGAUAUGAUCAAAUGAGAACACUGGCAGCCAGAUG | 2.33 |
| ACUCUUGACUCUUUCCAUCCUCUUCCUUUCCCUCUUGAUAUUCAAGGCCAUGAAUCCCAAAAUAACAGUCUUAGUGGGAGGCUAGCAAACAGAGGUGGAAUAAAUCCAAACUGACAACUC | 0.34 |
| GGGGAGAAACCUUACGAAUGCGUUCAGUGUGGGAAAUCCUACAGUCAGAGCUCAAACCUCUUCAGACAUCAGAGACGACACAAUGCAGAAAAACUUCUGAAUGUUGUGAAGGUUUAAGAA | 0.0875 |

Some of these lines once more (series 3):
| Sequence | E-score |
| --- | --- |
| CGCGTCTA | 0.00286 |
| CCGAAAGG | 0.0386 |
| CCGTCACA | -0.159 |
| CCGGGAAA | -0.196 |
